Results gathered from unrelated publications.
Lines come from different studies, so protocols differ. Numbers after ± are the reported error.
MAOA: Amine oxidase [flavin-containing] A (MAOA, Homo sapiens, UniProt P21397)
Chain of UniProt P21397 (whole entry, looked up): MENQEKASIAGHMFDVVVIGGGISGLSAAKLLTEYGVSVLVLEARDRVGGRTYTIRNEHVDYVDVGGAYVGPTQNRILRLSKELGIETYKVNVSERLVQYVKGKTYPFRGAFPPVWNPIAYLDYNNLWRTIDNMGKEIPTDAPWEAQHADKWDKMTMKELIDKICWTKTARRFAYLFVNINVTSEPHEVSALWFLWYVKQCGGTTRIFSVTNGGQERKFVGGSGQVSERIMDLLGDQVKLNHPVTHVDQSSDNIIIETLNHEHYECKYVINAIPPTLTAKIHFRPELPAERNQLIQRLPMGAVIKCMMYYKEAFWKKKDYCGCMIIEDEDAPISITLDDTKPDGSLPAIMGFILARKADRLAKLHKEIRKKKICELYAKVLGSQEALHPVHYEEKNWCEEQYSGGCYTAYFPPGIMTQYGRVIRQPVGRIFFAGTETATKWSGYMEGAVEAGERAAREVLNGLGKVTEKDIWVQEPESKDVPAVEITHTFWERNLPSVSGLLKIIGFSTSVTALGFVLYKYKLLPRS
Chain of UniProt Q05097 (whole entry, looked up): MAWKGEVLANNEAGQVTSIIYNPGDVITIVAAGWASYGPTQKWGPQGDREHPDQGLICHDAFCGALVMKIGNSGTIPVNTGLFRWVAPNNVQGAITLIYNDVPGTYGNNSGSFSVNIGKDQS
Chain of UniProt Q02750 (whole entry, looked up): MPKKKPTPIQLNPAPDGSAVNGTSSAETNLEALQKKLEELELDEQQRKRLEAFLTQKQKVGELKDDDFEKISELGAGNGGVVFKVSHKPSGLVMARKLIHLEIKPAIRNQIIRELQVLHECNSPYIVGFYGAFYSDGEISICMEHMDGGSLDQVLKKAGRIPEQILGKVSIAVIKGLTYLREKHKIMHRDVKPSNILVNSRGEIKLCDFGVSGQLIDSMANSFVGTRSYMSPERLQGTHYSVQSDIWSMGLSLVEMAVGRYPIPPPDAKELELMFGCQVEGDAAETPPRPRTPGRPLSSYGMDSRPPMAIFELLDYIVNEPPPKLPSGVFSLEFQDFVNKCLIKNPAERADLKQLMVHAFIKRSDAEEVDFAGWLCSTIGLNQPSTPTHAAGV
Chain of UniProt P01024 (whole entry, unmodified, looked up): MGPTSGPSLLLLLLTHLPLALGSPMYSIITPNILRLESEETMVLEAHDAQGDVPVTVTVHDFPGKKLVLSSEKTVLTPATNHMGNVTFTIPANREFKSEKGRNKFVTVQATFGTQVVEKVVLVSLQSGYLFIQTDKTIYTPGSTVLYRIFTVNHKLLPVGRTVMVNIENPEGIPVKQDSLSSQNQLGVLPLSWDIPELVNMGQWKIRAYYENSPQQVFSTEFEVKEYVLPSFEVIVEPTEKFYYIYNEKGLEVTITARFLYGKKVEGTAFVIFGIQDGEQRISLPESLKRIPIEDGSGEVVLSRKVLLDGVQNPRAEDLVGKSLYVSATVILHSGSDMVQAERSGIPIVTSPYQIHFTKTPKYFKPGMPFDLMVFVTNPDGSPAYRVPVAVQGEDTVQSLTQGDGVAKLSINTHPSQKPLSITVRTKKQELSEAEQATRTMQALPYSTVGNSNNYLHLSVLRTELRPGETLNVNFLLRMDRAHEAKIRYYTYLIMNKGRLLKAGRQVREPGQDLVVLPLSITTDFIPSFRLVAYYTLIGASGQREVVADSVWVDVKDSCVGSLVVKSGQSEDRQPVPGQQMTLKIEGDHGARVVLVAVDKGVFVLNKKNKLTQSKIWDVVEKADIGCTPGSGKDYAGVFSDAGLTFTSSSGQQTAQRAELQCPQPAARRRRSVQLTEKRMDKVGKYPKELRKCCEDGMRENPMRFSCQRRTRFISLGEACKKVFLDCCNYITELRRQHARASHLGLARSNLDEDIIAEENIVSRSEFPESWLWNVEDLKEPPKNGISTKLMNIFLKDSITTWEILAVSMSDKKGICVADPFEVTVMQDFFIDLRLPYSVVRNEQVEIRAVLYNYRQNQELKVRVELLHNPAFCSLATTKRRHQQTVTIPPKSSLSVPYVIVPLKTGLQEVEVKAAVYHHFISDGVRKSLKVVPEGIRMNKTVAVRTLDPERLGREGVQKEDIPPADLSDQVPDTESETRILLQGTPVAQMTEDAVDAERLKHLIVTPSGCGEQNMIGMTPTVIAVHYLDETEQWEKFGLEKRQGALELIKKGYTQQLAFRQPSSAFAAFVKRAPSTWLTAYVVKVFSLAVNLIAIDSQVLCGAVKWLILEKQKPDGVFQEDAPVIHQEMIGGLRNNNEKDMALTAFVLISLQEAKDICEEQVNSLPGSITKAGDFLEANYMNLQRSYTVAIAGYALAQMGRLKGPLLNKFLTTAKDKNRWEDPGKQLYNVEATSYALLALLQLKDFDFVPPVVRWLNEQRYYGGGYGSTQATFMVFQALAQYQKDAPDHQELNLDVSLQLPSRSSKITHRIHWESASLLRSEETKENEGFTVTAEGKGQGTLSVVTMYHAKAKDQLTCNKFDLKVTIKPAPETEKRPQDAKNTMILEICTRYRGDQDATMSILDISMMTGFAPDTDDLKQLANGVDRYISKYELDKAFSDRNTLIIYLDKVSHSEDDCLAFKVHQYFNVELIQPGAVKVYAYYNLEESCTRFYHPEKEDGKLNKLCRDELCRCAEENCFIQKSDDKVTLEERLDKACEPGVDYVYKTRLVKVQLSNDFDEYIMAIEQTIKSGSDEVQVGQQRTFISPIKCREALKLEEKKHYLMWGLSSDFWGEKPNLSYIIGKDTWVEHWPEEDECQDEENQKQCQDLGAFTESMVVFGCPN
Chain of UniProt Q9BY41 (whole entry, unmodified, looked up): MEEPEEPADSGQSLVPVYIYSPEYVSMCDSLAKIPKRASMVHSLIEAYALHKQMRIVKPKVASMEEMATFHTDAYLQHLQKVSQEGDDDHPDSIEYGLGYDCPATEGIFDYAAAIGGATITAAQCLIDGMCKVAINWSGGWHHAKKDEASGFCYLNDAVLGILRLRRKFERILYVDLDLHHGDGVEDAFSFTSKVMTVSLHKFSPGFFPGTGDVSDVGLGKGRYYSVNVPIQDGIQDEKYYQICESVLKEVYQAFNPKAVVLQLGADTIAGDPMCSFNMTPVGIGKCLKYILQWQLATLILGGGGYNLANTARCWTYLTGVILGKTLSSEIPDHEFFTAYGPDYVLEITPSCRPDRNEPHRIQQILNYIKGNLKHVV
Chain of UniProt P41595 (whole entry, looked up): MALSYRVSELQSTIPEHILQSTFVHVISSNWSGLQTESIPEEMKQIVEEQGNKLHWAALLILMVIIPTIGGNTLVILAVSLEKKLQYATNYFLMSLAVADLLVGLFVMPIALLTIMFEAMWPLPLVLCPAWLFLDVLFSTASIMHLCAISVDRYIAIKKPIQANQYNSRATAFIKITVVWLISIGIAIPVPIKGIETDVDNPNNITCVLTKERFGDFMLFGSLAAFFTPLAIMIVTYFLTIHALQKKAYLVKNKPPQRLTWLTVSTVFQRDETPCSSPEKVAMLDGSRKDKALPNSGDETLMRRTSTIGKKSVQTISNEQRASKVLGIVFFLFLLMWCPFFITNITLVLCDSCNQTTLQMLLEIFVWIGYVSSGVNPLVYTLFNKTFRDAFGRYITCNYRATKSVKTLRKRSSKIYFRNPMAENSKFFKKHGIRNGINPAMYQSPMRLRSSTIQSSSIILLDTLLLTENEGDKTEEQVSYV
Chain of UniProt Q9Y294 (whole entry, unmodified, looked up): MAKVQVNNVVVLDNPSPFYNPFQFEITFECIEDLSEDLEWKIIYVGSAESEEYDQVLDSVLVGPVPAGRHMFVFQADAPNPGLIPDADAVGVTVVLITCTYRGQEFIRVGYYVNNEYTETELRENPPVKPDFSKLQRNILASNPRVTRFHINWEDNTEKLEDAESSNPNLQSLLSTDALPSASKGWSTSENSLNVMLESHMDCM
Chain of UniProt P10636 (whole entry, looked up): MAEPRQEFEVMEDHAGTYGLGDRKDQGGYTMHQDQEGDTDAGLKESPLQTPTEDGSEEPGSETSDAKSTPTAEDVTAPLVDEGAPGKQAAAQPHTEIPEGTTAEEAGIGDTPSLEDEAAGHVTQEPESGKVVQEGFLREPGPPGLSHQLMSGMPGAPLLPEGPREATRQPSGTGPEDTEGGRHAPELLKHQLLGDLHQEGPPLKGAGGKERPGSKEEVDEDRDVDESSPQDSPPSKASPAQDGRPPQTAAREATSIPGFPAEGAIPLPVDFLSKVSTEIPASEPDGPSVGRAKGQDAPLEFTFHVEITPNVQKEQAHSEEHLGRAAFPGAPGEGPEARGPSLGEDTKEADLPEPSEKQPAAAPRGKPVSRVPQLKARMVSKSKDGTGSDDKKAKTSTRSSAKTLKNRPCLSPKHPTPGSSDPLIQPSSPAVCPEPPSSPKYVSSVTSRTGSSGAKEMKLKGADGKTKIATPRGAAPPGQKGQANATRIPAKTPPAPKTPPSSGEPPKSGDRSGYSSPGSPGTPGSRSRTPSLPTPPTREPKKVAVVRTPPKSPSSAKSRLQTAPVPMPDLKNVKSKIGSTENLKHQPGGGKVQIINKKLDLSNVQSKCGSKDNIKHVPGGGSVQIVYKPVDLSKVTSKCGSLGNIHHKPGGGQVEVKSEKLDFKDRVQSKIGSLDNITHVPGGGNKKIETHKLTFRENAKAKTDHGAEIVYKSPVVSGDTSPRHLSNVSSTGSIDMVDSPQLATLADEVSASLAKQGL
Chain of UniProt P07687 (whole entry, looked up): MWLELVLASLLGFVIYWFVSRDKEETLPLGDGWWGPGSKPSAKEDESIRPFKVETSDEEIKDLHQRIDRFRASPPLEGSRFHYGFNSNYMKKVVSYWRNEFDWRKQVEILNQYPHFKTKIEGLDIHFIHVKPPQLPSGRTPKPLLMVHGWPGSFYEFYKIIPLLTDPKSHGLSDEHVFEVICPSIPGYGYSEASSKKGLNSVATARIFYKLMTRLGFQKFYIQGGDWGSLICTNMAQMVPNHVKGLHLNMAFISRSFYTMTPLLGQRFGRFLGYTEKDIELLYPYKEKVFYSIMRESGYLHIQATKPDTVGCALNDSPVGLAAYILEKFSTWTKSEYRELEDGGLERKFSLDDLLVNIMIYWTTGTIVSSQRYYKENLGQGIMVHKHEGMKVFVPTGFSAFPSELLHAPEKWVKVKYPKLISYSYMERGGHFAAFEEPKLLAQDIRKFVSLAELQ

| Structure (SMILES) | target or system | assay | system | setting | how to read | measurement | value |
| --- | --- | --- | --- | --- | --- | --- | --- |
| COc1cc(CNC(=O)C[C@H](C)CCC=C(C)C)ccc1OCc1cn(-c2ccc(Cl)c(Cl)c2)nn1 | EKVX | SRB |  | 10 µM, 48 h |  | growth percent | 77.2% |
| CC[C@H](C)[C@H](NC(=O)[C@@H]1CSSC[C@H](NC(=O)[C@@H](NC(C)=O)[C@@H](C)CC)C(=O)N[C@@H](C(C)C)C(=O)N[C@@H](Cc2cn(C)c3ccccc23)C(=O)N[C@@H](CCC(N)=O)C(=O)N[C@@H](CC(=O)O)C(=O)N[C@@H](Cc2c[nH]c3ccccc23)C(=O)NCC(=O)N[C@@H](C)C(=O)N[C@@H](Cc2c[nH]cn2)C(=O)N[C@@H](CCCNC(=N)N)C(=O)N1)C(N)=O | Complement C3 (Homo sapiens, UniProt P01024) | ITC |  | concentration not given |  | ΔG of binding | -10.9 kcal/mol |
| OC(Cc1cc(-c2ccc(C(O)C(F)(F)F)s2)sc1-c1ccc(-c2sc(-c3ccc(C(O)C(F)(F)F)s3)cc2CC(O)C(F)(F)F)s1)C(F)(F)F (stereo not shown) | Microtubule-associated protein tau, 0N4R isoform, aggregated (MAPT, Homo sapiens, UniProt P10636) | binding, fluorescence | 10% sucrose tau fraction |  | reference: 10% over 20% fraction | Kd ratio | 14 |
| O=C1c2ccc(O)cc2O[C@@H](c2ccc(O)cc2)[C@@H]1[C@@H]1C(=O)c2ccc(O)cc2O[C@H]1c1ccc(O)cc1 | laccase (Trametes versicolor) | substrate |  | product formation |  | Km | 9.17 ± 0.615 mM |
| CC1(C)CCOC1CN1CCOCC1Cc1c[nH]c2ccccc12 (stereo not shown) | HTR2B (Homo sapiens, UniProt P41595) | β-arrestin recruitment, agonist |  |  |  | Emax | 116% |
| [N-]=[N+]=N[C@H]1[C@H](O)[C@@H](O)[C@H](n2cc(CO[C@@H]3O[C@H](CO)[C@H](O)[C@H](O)[C@H]3O)nn2)O[C@@H]1CO | lecA (Pseudomonas aeruginosa, UniProt Q05097) | isothermal titration calorimetry |  | concentration not given, 25 °C |  | binding stoichiometry | 1 ± 0.01 |
| CNS(=O)(=O)Nc1cccc(-n2c(=O)n(C3CC3)c(=O)c3c(Nc4ccc(I)cc4F)n(C)c(=O)c(C)c32)c1 | MAP2K1 (Homo sapiens, UniProt Q02750) | phosphorylation by upstream kinase, inhibitor |  | 1 µM |  | outcome | inhibited |
| COc1ccc(CCCN[C@H]2CCC[C@@H]2CN[C@@H]2CCC[C@H]2CNCCCCN[C@@H]2CCC[C@H]2CN)cc1 | MAOA | enzyme activity, inhibitor |  | together with: tyramine 50 µM |  | Ki | 330 ± 31 µM |
| COc1cc(CNC(=O)C[C@H](C)CCC=C(C)C)ccc1OCc1cn(-c2ccccc2[N+](=O)[O-])nn1 | EKVX | SRB |  | 10 µM, 48 h |  | growth percent | 58.8% |
| [64Cu+2].c1cnc(CNCc2ccc(CN3CCCN4CCNCCCN(CC4)CC3)cc2)nc1 | CXCR4 |  | NOD/SCID mouse, U87 and U87-stb-CXCR4 xenografts, heart | iv, 90 min, ex vivo, together with: AMD3465 25 mg/kg sc before tracer |  | tissue uptake | 0.85 ± 0.17 %ID/g |
| CCCC[C@@H](CNC(=O)N[C@@H](CCC(N)=O)CNC(=O)N[C@@H](CCCNC(=N)N)C(=O)N[C@H](C(=O)N[C@@H](C)C(N)=O)[C@@H](C)CC)NC(=O)NC[C@H](CCCNC(=N)N)NC(=O)NC[C@H](Cc1ccc2ccccc2c1)NC(=O)[C@H](CCCCN)NC(=O)[C@H](CCC(=O)O)NC(C)=O | Histone chaperone ASF1A (Homo sapiens, UniProt Q9Y294) | isothermal titration calorimetry |  | pH 7.5, 20 °C |  | -TΔS | -4.6 ± 0.4 kcal/mol |
| O=C1Nc2ccc(F)cc2/C1=N/N=C/c1ccc(OCc2cccc(F)c2)cc1 | MAOA | enzyme activity, inhibitor |  | 10 µM |  | remaining activity | 53.1% |
| O=C(CCC1CO1)Oc1ccc([N+](=O)[O-])cc1 (racemic) | Epoxide hydrolase 1 (Ephx1, Rattus norvegicus, UniProt P07687) | substrate, absorbance |  | 50 µM, pH 9.0, 37 °C, rat enzyme |  | signal to noise ratio | > 40 |
| O=C(CCCCCCS)Nc1ccccc1 | HDAC8 (Homo sapiens, UniProt Q9BY41) | temperature-dependent ITC |  |  |  | temperature where ΔG equals ΔH | 310 K |
| Cc1cc(=O)c2c(O)c3c(OC4OC(CO)C(O)C(O)C4O)cccc3cc2o1 (stereo not shown) | MAOA | inhibitor, Lineweaver-Burk secondary plot |  | uncompetitive component |  | Kiu | 12.3 µM |
| NS(=O)(=O)Nc1ncnc(OCCOc2ncc(Br)cn2)c1-c1ccc(Br)cc1 |  | M6 formation | male Beagle dog, liver microsomes | 5 mg/kg daily for 4 weeks |  | Km | 0.0086 ± 0.0009 mM |

Excerpt of the above:
| Structure (SMILES) | target or system | assay | system | setting | how to read | measurement | value |
| --- | --- | --- | --- | --- | --- | --- | --- |
| NS(=O)(=O)Nc1ncnc(OCCOc2ncc(Br)cn2)c1-c1ccc(Br)cc1 |  | M6 formation | male Beagle dog, liver microsomes | 5 mg/kg daily for 4 weeks |  | Km | 0.0086 ± 0.0009 mM |
| CC1(C)CCOC1CN1CCOCC1Cc1c[nH]c2ccccc12 (stereo not shown) | HTR2B (Homo sapiens, UniProt P41595) | β-arrestin recruitment, agonist |  |  |  | Emax | 116% |
| OC(Cc1cc(-c2ccc(C(O)C(F)(F)F)s2)sc1-c1ccc(-c2sc(-c3ccc(C(O)C(F)(F)F)s3)cc2CC(O)C(F)(F)F)s1)C(F)(F)F (stereo not shown) | Microtubule-associated protein tau, 0N4R isoform, aggregated (MAPT, Homo sapiens, UniProt P10636) | binding, fluorescence | 10% sucrose tau fraction |  | reference: 10% over 20% fraction | Kd ratio | 14 |
